# Assay results from different studies.
# Compare with care: the assays were run in different laboratories. Values joined by “and” are separate records of one study, mostly repeats; a detail may differ. Numbers after ± are the reported error.
# AR: Androgen receptor (AR, Homo sapiens, UniProt P10275)
# UniProt P10275, sequence (whole entry, looked up): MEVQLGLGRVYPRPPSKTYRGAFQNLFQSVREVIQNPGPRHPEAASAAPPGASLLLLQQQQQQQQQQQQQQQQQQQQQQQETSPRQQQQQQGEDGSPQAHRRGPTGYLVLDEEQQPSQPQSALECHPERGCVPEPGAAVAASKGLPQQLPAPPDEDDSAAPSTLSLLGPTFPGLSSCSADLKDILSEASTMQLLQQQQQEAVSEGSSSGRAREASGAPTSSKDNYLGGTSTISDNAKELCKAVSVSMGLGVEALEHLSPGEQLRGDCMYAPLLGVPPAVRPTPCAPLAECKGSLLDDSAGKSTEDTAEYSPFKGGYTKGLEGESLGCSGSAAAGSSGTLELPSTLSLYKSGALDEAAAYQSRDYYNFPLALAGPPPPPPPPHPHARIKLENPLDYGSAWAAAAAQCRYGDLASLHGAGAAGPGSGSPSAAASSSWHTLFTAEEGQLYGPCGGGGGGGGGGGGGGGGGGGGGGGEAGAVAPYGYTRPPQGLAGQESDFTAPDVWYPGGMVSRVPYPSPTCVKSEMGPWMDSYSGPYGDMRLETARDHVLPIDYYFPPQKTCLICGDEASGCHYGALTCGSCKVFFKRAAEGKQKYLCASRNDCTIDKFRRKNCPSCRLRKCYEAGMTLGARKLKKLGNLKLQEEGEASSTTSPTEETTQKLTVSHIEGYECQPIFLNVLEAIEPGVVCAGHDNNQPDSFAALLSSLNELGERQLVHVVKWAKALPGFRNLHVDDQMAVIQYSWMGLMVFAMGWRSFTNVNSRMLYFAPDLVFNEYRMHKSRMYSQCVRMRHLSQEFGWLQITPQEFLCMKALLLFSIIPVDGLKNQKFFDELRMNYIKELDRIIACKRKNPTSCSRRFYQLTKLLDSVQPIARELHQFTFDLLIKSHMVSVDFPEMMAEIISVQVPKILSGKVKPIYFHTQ
# PTGS2: Prostaglandin G/H synthase 2 (PTGS2, Homo sapiens, UniProt P35354)
# UniProt P35354, sequence (whole entry, looked up): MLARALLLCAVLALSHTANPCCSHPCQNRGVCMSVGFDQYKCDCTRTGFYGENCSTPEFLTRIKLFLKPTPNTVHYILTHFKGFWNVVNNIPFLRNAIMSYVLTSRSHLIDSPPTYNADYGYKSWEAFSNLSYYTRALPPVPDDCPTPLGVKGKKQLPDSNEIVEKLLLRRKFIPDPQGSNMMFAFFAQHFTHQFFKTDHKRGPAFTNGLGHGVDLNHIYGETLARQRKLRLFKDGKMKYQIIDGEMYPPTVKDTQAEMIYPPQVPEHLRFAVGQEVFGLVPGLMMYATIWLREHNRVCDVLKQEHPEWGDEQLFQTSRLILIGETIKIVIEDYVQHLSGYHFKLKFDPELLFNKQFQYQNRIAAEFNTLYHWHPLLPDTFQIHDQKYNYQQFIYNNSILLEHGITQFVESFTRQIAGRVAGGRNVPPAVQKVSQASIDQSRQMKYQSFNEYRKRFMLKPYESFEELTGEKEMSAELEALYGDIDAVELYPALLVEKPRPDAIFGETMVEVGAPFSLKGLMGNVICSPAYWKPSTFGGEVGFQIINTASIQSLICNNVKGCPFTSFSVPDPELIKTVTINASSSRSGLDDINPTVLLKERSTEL
# HDAC6: Protein deacetylase HDAC6 (HDAC6, Homo sapiens, UniProt Q9UBN7)
# UniProt Q9UBN7, sequence (whole entry, looked up): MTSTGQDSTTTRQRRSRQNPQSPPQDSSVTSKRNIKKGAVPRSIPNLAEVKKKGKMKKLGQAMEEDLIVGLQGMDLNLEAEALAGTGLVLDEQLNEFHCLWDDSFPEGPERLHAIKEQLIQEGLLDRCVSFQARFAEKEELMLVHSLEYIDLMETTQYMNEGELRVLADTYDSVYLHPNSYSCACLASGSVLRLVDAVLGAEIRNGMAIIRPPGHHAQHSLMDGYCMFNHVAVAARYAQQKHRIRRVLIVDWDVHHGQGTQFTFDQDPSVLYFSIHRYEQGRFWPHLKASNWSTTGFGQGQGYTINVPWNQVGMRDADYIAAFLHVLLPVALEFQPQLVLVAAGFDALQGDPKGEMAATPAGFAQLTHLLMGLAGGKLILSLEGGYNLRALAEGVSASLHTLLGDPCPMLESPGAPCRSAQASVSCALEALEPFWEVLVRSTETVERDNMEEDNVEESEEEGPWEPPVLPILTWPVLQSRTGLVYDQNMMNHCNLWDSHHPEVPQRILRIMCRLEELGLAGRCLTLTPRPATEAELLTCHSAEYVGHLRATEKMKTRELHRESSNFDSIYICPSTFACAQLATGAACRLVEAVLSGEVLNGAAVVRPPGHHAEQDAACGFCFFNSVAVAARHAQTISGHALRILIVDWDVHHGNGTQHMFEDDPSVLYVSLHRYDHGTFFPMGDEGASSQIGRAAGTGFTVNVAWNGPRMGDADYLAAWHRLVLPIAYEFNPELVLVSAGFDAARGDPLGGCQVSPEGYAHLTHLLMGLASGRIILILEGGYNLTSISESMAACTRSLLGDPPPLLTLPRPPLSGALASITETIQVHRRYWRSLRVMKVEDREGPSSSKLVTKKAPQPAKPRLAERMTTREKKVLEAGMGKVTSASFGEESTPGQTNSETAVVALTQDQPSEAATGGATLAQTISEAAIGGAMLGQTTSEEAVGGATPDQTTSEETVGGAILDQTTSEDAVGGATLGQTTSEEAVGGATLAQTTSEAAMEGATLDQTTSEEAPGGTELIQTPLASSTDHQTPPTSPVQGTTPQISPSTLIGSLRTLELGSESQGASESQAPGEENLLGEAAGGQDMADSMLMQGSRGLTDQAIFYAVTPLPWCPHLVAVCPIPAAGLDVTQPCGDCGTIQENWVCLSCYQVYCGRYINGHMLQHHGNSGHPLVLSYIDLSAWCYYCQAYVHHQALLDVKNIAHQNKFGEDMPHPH
# CPL: CPL (Toxoplasma gondii, UniProt Q6DMN0)
# UniProt P00488, sequence (whole entry, looked up): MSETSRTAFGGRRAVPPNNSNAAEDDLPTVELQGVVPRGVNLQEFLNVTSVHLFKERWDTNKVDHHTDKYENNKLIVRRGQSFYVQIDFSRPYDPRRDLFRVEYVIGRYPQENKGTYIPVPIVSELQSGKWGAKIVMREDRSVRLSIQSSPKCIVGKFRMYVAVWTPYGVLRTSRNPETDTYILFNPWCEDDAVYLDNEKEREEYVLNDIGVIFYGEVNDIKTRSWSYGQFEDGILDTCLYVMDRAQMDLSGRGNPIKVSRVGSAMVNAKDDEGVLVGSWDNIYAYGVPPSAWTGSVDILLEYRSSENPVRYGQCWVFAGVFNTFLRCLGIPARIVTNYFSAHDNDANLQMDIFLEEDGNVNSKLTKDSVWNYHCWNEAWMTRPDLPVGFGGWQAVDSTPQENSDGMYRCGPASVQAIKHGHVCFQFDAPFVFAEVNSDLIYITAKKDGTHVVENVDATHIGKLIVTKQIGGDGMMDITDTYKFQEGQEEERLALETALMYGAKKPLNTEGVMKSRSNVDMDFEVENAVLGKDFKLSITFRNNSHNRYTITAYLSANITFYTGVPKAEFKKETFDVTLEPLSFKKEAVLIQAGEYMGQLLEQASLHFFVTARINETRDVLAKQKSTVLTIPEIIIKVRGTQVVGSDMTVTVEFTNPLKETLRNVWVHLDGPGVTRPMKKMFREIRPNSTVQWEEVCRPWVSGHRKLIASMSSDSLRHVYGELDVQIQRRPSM
# UniProt P62937, sequence (whole entry, looked up): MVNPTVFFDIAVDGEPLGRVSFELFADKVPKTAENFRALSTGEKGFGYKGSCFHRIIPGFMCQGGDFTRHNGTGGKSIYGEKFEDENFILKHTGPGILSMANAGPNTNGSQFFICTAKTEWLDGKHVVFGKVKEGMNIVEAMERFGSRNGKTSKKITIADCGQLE
# UniProt P48775, sequence (whole entry, looked up): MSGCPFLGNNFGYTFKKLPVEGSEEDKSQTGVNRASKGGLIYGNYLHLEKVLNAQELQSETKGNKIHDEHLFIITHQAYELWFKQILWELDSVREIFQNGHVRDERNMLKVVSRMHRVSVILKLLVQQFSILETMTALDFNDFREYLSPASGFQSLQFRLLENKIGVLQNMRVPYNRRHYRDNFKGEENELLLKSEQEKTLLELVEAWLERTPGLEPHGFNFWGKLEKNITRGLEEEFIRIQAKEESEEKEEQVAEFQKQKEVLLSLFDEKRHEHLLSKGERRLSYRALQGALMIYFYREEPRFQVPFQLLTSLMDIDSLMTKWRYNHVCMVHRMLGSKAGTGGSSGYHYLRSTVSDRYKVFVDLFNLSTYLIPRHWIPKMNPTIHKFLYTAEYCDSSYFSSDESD
# UniProt Q923Y8, sequence (whole entry, looked up): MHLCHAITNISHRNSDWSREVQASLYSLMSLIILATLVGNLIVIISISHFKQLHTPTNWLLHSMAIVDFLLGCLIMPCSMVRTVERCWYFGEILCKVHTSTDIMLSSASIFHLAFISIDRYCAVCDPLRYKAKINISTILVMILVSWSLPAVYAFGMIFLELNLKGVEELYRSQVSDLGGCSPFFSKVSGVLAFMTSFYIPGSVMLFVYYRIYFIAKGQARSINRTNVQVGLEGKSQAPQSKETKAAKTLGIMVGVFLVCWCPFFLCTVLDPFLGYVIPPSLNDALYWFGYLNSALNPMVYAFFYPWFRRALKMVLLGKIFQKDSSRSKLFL
# UniProt O00748, sequence (whole entry, looked up): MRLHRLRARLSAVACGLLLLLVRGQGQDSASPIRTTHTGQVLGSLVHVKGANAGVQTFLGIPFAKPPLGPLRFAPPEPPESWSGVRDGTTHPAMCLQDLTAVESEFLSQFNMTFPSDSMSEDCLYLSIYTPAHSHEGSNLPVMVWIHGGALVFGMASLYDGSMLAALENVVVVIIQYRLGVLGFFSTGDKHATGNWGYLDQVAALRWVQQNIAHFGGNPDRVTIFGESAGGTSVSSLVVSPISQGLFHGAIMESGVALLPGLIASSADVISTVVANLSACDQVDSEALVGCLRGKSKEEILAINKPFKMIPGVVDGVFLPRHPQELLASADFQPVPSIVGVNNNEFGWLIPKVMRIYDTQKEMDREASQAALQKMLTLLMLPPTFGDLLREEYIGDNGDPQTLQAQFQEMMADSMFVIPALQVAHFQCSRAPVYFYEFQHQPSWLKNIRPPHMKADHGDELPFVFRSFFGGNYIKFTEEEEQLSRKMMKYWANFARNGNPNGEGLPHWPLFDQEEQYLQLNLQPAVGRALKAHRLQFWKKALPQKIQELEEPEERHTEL
Compound,target,test,test system,setting,IC50
Cc1ccc(Oc2ccc(Nc3ccccc3C(=O)O)cc2)cc1,AR,"reporter gene, antagonist, MMTV-Luc reporter",MDA-kb2,"20 h, together with: 8 nM DHT (EC90)",> 100 µM
N#CC1=C(N)n2c(nnc2-c2ccccc2)NC1c1ccc(Br)cc1 (stereo not drawn),PTGS2,"enzyme activity, inhibitor",,,15.2 µM
CCOC(=O)C/C(C)=N/NC(=O)c1nc2ccccc2n(C)c1=O,"PTGS1 (Ovis aries, UniProt P05979)","enzyme activity, inhibitor, ELISA",,,1.62 µM
O=C(Nc1ccccc1)c1ccccc1O,"HDAC3 (Homo sapiens, UniProt O15379)","enzyme activity, inhibitor, fluorescence",,,> 10 µM
CN[C@@H]1[C@H](O)[C@H](NC)[C@H]2O[C@]3(O)[C@H](O[C@@H]2[C@H]1O)O[C@H](C)C[C@@]3(O)CNCc1ccc(F)cc1,"Small ribosomal subunit protein uS5, 70S ribosome (rpsE, Mycolicibacterium smegmatis, UniProt A0QSG6)","translation, inhibitor, in vitro translation, luciferase",Mycobacterium smegmatis ribosomes,,0.74 µg/mL
Nn1c(-c2ccc(-n3nc(-c4ccccc4O)nc3-c3ccccc3O)cc2)n[nH]c1=S,PTGS2,"enzyme activity, inhibitor",,,0.07 µM
COc1ccc(N=Nc2cccc(NC(=O)CCCCCCC(=O)NO)c2)cc1,HDAC6,"enzyme activity, inhibitor",,trans isomer,0.394 ± 0.083 µM
CN[C@H](CC(C)C)C(=O)N[C@H]1C(=O)N[C@@H](CC(N)=O)C(=O)N[C@H]2C(=O)N[C@H]3C(=O)N[C@H](C(=O)N[C@H](C(=O)O)c4cc(O)cc(O)c4-c4cc3ccc4O)[C@H](O)c3ccc(c(Cl)c3)Oc3cc2cc(c3O[C@@H]2O[C@H](CO)[C@@H](O)[C@H](O)[C@H]2O[C@H]2C[C@](C)(NCc3ccc(C(=O)OCCCCCCN(Cc4ccccn4)Cc4ccccn4)cc3)[C@H](O)[C@H](C)O2)Oc2ccc(cc2Cl)[C@H]1O,"Beta-lactamase L1 (Stenotrophomonas maltophilia, UniProt P52700)","enzyme activity, inhibitor, fluorescence",,,10.2 µM
O=C(O)CC(O)C(=O)O (stereo not drawn),"PPCA (Flaveria trinervia, UniProt P30694, G884R)","enzyme activity, inhibitor",,together with: PEP at 2 × Km,2800 µM
CC[C@H](C)[C@H](NC(=O)[C@H](C)N)C(=O)N[C@@H](CCCNC(=N)N)C(=O)N[C@@H](CCC(N)=O)C(=O)N[C@H](C(=O)N[C@@H](Cc1c[nH]cn1)C(=O)N[C@@H](CC(N)=O)C(=O)N[C@H](C(=O)N[C@@H](Cc1ccccc1)C(=O)N[C@@H](Cc1ccccc1)C(=O)N[C@@H](Cc1ccccc1)C(=O)N[C@@H](CC(C)C)C(=O)N[C@@H](Cc1ccccc1)C(=O)N[C@@H](CCCCN)C(=O)N[C@@H](CCCNC(=N)N)C(=O)N[C@@H](CCCNC(=N)N)C(=O)O)[C@@H](C)CC)[C@@H](C)O,"histidine kinase ComD (Streptococcus pneumoniae serotype 4, UniProt A0A0H2US84)","reporter gene, antagonist","Streptococcus pneumoniae, TIGR4 comX::lacZ","30 min, 37 °C, together with: CSP2 250 nM",> 10 µM
CC(C)[C@@H]1NC(=O)[C@H](Cc2ccccc2)NC(=O)CSC[C@@H](C(N)=O)NC(=O)[C@H](CCC(=O)O)NC(=O)[C@H](CO)NC(=O)[C@H](Cc2c[nH]c3ccccc23)NC(=O)[C@H](C(C)C)NC(=O)[C@H](C(C)C)NC(=O)[C@H](Cc2ccc(O)cc2)NC(=O)[C@H](CC(=O)O)NC(=O)[C@H](Cc2c[nH]c3ccccc23)NC(=O)[C@H](Cc2ccc(O)cc2)NC(=O)[C@H](Cc2c[nH]c3ccccc23)NC(=O)[C@H](CCC(=O)O)NC1=O,"Interleukin-1 receptor-like 2 (IL1RL2, Homo sapiens, UniProt Q9HB29)","reporter gene, inhibitor",HEK-Blue IL-36R,"6 h, together with: IL-36 0.03 ng/mL",~14 µM
O=C(CCCCCCC(=O)Nc1cccc(N=Nc2ccccc2)c1)NO,HDAC6,"enzyme activity, inhibitor",,trans isomer,0.013 ± 0.003 µM
O=C(O)c1ccccc1Nc1ccc(Oc2ccc(F)cc2)cc1,AR,"reporter gene, antagonist, MMTV-Luc reporter",MDA-kb2,"20 h, together with: 8 nM DHT (EC90)",> 100 µM
Cc1cc(C)c(S(=O)(=O)N2CC2C(N)=O)c(C)c1 (stereo not drawn),"P4HB (Homo sapiens, UniProt P07237)","enzyme activity, inhibitor, absorbance",,pH 7.6,> 200 µM
CC(C)CCN(Cc1ccccc1[N+](=O)[O-])c1nc(C#N)nc(N2CCOCC2)n1,CPL,"enzyme activity, inhibitor, Z-L-R-AMC hydrolysis fluorescence",,,0.027 µM
O=C(O)c1cc2ccccc2n1Cc1ccccc1,"TDO2 (Homo sapiens, UniProt P48775)",inhibitor,,together with: L-tryptophan 400 µM,> 500 µM
NC1CC1c1ccc(NC(=O)C(CCc2ccccc2)NC(=O)OCc2ccccc2)cc1 (stereo not drawn),"Lysine-specific histone demethylase 1A, with CoREST (KDM1A, Homo sapiens, UniProt O60341)","demethylase activity, inhibitor, Amplex UltraRed HRP",,"15 min preincubation, together with: H3K4me1 peptide, CoREST",0.13 ± 0.025 µM
C[C@@H]1CCN(c2nc3ccc(Cl)cc3o2)CCN1S(=O)(=O)c1ccc2c(c1)OCCO2,"HCRTR2 (Homo sapiens, UniProt O43614)","calcium signal, antagonist, fluorescence",,,1.78 µM
CC(C)CCCN(Cc1ccc(F)cc1)c1nc(C#N)nc(N2CCOCC2)n1,CPL,"enzyme activity, inhibitor, Z-L-R-AMC hydrolysis fluorescence",,,0.22 µM
CN(CCO)c1ccc(/C=C/C(=O)C(c2ccccc2)c2ccccc2)cc1,PTGS2,"enzyme activity, inhibitor, ELISA",,,84.7 µM
Fc1ncc(C2CC3CCC2N3)cc1-c1cccnc1 (racemic),"Neuronal acetylcholine receptor; alpha4/beta2 (Rattus norvegicus, UniProt P09483+P12390)","ion current, antagonist, two-electrode voltage clamp",,oocytes,1.7 µM
COc1ccc(-n2c(SCCCN3CCOCC3)nnc2[C@H](Cc2ccccc2)NC(=O)Cc2c(C)[nH]c3ccccc23)cc1,HIV-1 capsid hexamer,"CPSF6 binding, inhibitor, SPR competition",,,0.0924 µM
CC(C)[C@@H](NC(=O)[C@@H](C)c1cccc(C(=O)c2ccccc2)c1)C(=O)N[C@H](CCC(=O)O)C(=O)N[C@@H](C(=O)N[C@H](CCC(=O)O)C(=O)O)C(C)C,PTGS2,"enzyme activity, inhibitor, fluorescence",,,5.8 µM
CC(=O)CCC1C(=O)NC(C(C)C)C(=O)NC(Cc2cc(O)cc(F)c2)C(=O)N2CCCC(N2)C(=O)OC(C(C)=CC=CC(=O)N2CCCCO2)CC=CC=CC(O)C(C)C1O (stereo not drawn),"Peptidyl-prolyl cis-trans isomerase A, with HCV NS5A (PPIA, Homo sapiens, UniProt P62937)",inhibitor,,,0.1 ± 0.01 µM
C=CC1CN2CCC1CC2C(O)c1c(-c2ccc(N=Nc3ccccc3)cc2)cnc2ccc(OC)cc12 (stereo not drawn),"SCN5A (Homo sapiens, UniProt Q14524, F1760A)",whole-cell patch clamp,HEK293T expressing mutant,"pH 7.3, in darkness",> 100 µM
C[C@H]1Oc2c(c(=O)oc3c2ccc2ccccc23)[C@@H]1C,"SYK (Homo sapiens, UniProt P43405)","enzyme activity, inhibitor, ADP detection",,,46 µM
COc1cccc(/C=C/C(=O)c2cccc3ccccc23)c1OC,PTGS2,"enzyme activity, inhibitor, ELISA",,,36.2 µM
CC(C)C[C@@H]1NC(=O)[C@@H](CCCNC(=N)N)NC(=O)[C@H](CCCCN)NC(=O)[C@H](CC(=O)O)NC(=O)[C@H](CCCCN)NC(=O)[C@H](CO)NC1=O,"Disintegrin and metalloproteinase domain-containing protein 8 (Homo sapiens, UniProt P78325)","CD23 shedding, inhibitor, ELISA","COS-7, co-transfected with CD23",,2.43 ± 0.087 µM
COC(=O)C=CCCC(NC(=O)c1ccncc1C(=O)O)C(=O)NC(C(=O)N1CC(=O)CC1C(=O)NC(C(=O)NC(C(N)=O)C1CCCCC1)C1CCCCC1)C(C)(C)C (stereo not drawn),"F13A1 (Homo sapiens, UniProt P00488)","isopeptidase activity, inhibitor",,"together with: substrate A101, thrombin-activated",0.014 µM and 0.016 µM
COc1cccc(CN(CCC(C)C)c2nc(C#N)nc(N3CCOCC3)n2)c1,CPL,"enzyme activity, inhibitor, Z-L-R-AMC hydrolysis fluorescence",,,0.047 µM
N#CC(C#N)C(c1ccccc1Cl)c1c[nH]c2ccccc12 (stereo not drawn),"Cocaine esterase (CES2, Homo sapiens, UniProt O00748)","enzyme activity, inhibitor",human liver microsomes,"pH 7.4, 37 °C, together with: fluorescein diacetate",11.1 ± 2.45 µM
O=C(CCCCCCC(=O)Nc1ccccc1N=Nc1ccccc1)NO,"HDAC8 (Homo sapiens, UniProt Q9BY41)","enzyme activity, inhibitor",,trans isomer,0.07 ± 0.022 µM
C=CCCCC[C@](C)(NC(=O)[C@H](CC(C)C)NC(=O)[C@H](CCCCN)NC(=O)[C@H](CC(C)C)NC(=O)[C@](C)(CCCCC=C)NC(=O)[C@H](Cc1ccccc1)NC(=O)[C@H](Cc1ccc(O)cc1)NC(=O)[C@H](C)NC(=O)[C@@H](N)[C@@H](C)O)C(=O)NCC(=O)N[C@@H](CCCNC(=N)N)C(=O)N[C@@H](Cc1c[nH]c2ccccc12)C(N)=O,"Gag-Pol polyprotein, integrase (gag-pol, Human immunodeficiency virus type 1 group M subtype B, UniProt P04585)","integrase strand transfer, inhibitor",,,43 ± 5 µM
Cc1cn(C2CCC(OC(C(=O)O)P(=O)(O)O)C2)c(=O)[nH]c1=O (racemic),"Gag-Pol polyprotein, reverse transcriptase (gag-pol, Human immunodeficiency virus type 1 group M subtype B, UniProt P04585)","enzyme activity, inhibitor",,,3.6 µM
COc1cc(-c2nn(C3CCC(N4CCN(C)CC4)CC3)c3ncnc(N)c23)ccc1NC(=O)OCc1ccccc1 (stereo not drawn),"ROCK1 (Homo sapiens, UniProt Q13464)","kinase activity, inhibitor",,"together with: ATP 100 µM, MBP substrate",> 20 µM
N#Cc1c(C(F)(F)F)cc(-c2ccc(Cl)cc2)nc1SCC(=O)Nc1ccccn1,"Taar1 (Mus musculus, UniProt Q923Y8)",,,,3.07 ± 0.36 µM
C#CCSc1nc(Sc2nnnn2C)c2nnn(Cc3ccccc3)c2n1,"KDM1A (Homo sapiens, UniProt O60341)","enzyme activity, inhibitor, fluorescence",,,0.1 µM
CC(C)C[C@H](NC(=O)OCc1ccccc1)C(=O)N[C@H](C=O)C[C@H]1CCNC1=O,"Genome polyprotein, 3C protease (Human enterovirus D68, UniProt Q68T42)","3C protease activity, inhibitor, FRET",,,0.17 ± 0.02 µM
CC[C@@H]1NC(=O)[C@H]([C@H](O)[C@H](C)Cc2nc3ccc(C(=O)OC)cc3[nH]2)N(C)C(=O)[C@H](C(C)C)N(C)C(=O)[C@H](CC(C)C)N(C)C(=O)[C@H](CC(C)C)N(C)C(=O)[C@@H](C)NC(=O)[C@H](C)NC(=O)[C@H](CC(C)C)N(C)C(=O)[C@H](C(C)C)NC(=O)[C@H](CC(C)C)N(C)C(=O)CN(C)C1=O,"PPIA (Homo sapiens, UniProt P62937)","enzyme activity, inhibitor",,,0.0119 µM
